Measured values from different studies.
Compare with care: the assays were run in different laboratories. ± gives the spread as reported.
CXCR4: C-X-C chemokine receptor type 4 (CXCR4, Homo sapiens, UniProt P61073)
EPHA4: Ephrin type-A receptor 4 (EPHA4, Homo sapiens, UniProt P54764)
cathepsin H: cathepsin H (Capra hircus, UniProt A0A452G5L2)
Dihydrofolate reductase: Dihydrofolate reductase (Enterococcus faecalis, UniProt Q834R2)

CC(=O)OC[C@H]1O[C@@H](Sc2sc(C(=O)c3ccc(C)cc3)c(N)c2-c2nc3ccccc3s2)[C@H](OC(C)=O)[C@@H](OC(C)=O)[C@@H]1OC(C)=O  growth (CAKI-1; SRB; 10 µM, 48 h; baseline: untreated): 53.7%
[64Cu+2].c1cnc(CNCc2ccc(CN3CCCN4CCNCCCN(CC4)CC3)cc2)nc1  tissue uptake (CXCR4; NOD/SCID mice, U87 xenografts, U87-stb-CXCR4 tumour; 90 min post-injection): 36.1 ± 4.84 %ID/g
Cc1cc(N)nc(C[C@H]2CNC[C@H]2OCCCCCc2cccc(F)c2)c1  Ki (Nos1 (Rattus norvegicus, UniProt P29476); enzyme activity, inhibitor; pH 7.4): 9.06 µM
Nc1ncnc2c(CN3C[C@H](CSc4cnccn4)[C@@H](O)C3)c[nH]c12  Ki (Aminodeoxyfutalosine nucleosidase (Helicobacter pylori, UniProt Q9ZMY2); enzyme activity, inhibitor; initial): 4.3e-05 ± 1e-06 µM
C[C@@H]1O[C@H](OP(=O)(O)OP(=O)(O)OC[C@H]2O[C@@H](n3cnc4c(=O)[nH]c(N)nc43)[C@H](O)[C@@H]2O)[C@@H](F)[C@H](O)[C@@H]1O  Ki (FUT3 (Homo sapiens, UniProt P21217); enzyme activity, inhibitor): 17.9 µM
COC(=O)C1(Cc2ccccc2)C=C(C(=O)OC(C)(C)C)C(=O)CC1 (stereo not drawn)  Ki (MAPK14 (Homo sapiens, UniProt Q16539); ligand displacement, FP): 0.5 µM
Cc1ccc(NC(=O)c2ccc(-c3cc(O)ccc3C)c(C)c2)cc1F  Ki (EPHA4): > 0.25 µM
CC[C@H](C)[C@H](NC(C)=O)C(=O)N[C@H](C(=O)N[C@H](C(=O)N[C@@H](CCCCNC(C)=O)C(=O)N[C@H](C=O)CC(=O)O)C(C)C)[C@@H](C)O  Ki (Caspase-6 (CASP6, Homo sapiens, UniProt P55212); enzyme activity, inhibitor, fluorescence; pH 7): 0.977 µM
O=Cc1c(O)ccc2ccccc12  log2 fold change (HUVEC; RNA sequencing, item: RRM2; 75 µM, 24 h; baseline: DMSO): -4.29
CNC(=O)C1CCN(c2ccccc2NC(=O)c2ccc(-c3ccnc4[nH]ccc34)c(C)c2)CC1  Ki (EPHA4): > 0.25 µM
COc1cccc(/C=C/C(=O)c2ccccc2)c1  Ki (cathepsin H; competitive inhibitor, Lineweaver-Burk plot; goat liver enzyme; pH 7.0, together with: Leu-βNA substrate): 110 ± 0.07 µM
COc1cc(Cc2cnc(N)nc2N)cc(/C=C/C(=O)N2N=Cc3ccccc3C2Cc2ccc(C)cc2)c1OC (stereo not drawn)  Ki (Dihydrofolate reductase; enzyme activity, inhibitor; together with: dihydrofolate (Km 10.9 µM)): 0.0062 µM
COc1cc(CNC(=O)C[C@H](C)CCC=C(C)C)ccc1OCc1cn(-c2cccc(Cl)c2)nn1  growth percent (NCI-H322M; SRB; 10 µM, 48 h): 105%
[64Cu+2].c1ccc(CNCc2ccc(CN3CCCN4CCNCCCN(CC4)CC3)cc2)nc1  tissue uptake (CXCR4; NOD/SCID mice, U87 xenografts, U87-stb-CXCR4 tumour; 120 min post-injection): 18.2 ± 2.03 %ID/g
CC[C@H](C)[C@H](NC(=O)[C@H](CCC(N)=O)NC(=O)[C@H](CCCNC(=N)N)NC(=O)[C@H](CC(C)C)NC(=O)[C@@H](NC(=O)[C@H](CCCCN)NC(=O)[C@H](Cc1ccc(O)cc1)NC(=O)[C@H](CCCCN)NC(=O)[C@H](CC(=O)O)NC(=O)[C@H](CCCNC(=N)N)NC(=O)CNC(=O)[C@H](CC(C)C)NC(=O)[C@@H](N)CCCNC(=N)N)[C@@H](C)O)C(=O)N[C@@H](CCCNC(=N)N)C(=O)N[C@@H](CCC(N)=O)C(=O)O  Ki (Lrrk2 (Mus musculus, UniProt Q5S006); enzyme activity, inhibitor, TR-FRET; Ki,ea, together with: ATP varied, PLK-peptide substrate): 650 ± 60 µM
CS(=O)(=O)NC(=O)[C@H]1O[C@@H](n2cnc3c(N)ncnc32)[C@H](O)[C@@H]1O  Ki (RNASE1 (Bos taurus, UniProt P61823); enzyme activity, inhibitor, fluorescence): 5300 µM
NC(=O)N/N=C(\C=C\c1ccccc1)c1ccccc1  Ki (cathepsin H; competitive inhibitor, Lineweaver-Burk plot; goat liver enzyme; pH 7.0, together with: Leu-βNA substrate): 66 ± 0.2 µM
COc1cc(Cc2cnc(N)nc2N)cc(/C=C/C(=O)N2N=Cc3ccccc3C2Cc2ccc(OC(F)(F)F)cc2)c1OC (stereo not drawn)  Ki (Dihydrofolate reductase; enzyme activity, inhibitor; together with: dihydrofolate (Km 10.9 µM)): 0.0188 µM
COc1ccc([C@@H]2CN(C(=O)OCC3c4ccccc4-c4ccccc43)C[C@H]2C(=O)O)cc1  Ki (PTH1R (Homo sapiens, UniProt Q03431); ligand displacement, radioligand): 7.1 µM
C=CC(=O)Nc1cc(Nc2nccc(-c3cn(C)c4ccccc34)n2)c(OCC(F)(F)F)nc1N(C)CCN(C)C  activity vs control (Cytochrome P450 2C9 (CYP2C9, Homo sapiens, UniProt P11712); enzyme activity, inhibitor; human, liver microsomes; 10 µM): 100%
O=[N+]([O-])c1cccc(CS(=O)(=O)NCc2cn(CB(O)O)nn2)c1  Ki (Beta-lactamase ADC-7 (Acinetobacter baumannii, UniProt Q6DRA1); enzyme activity, inhibitor; together with: nitrocefin): 1.02 ± 0.1 µM
CC(Oc1nc(-c2ccccc2)nc2ccccc12)C(=O)N(C)c1ccccc1 (stereo not drawn)  Ki ratio (human leukocytes; binding; baseline: LAB over HAB genotype): 1 ± 1
COc1cc(CNC(=O)C[C@H](C)CCC=C(C)C)ccc1OCc1cn(-c2cccc([N+](=O)[O-])c2)nn1  growth percent (HOP-92; SRB; 10 µM, 48 h): 76.2%
CNC(=O)C(CS)N1C(=O)c2ccc(N(C)C)cc2C1=O (stereo not drawn)  Ki (Metallo-beta-lactamase type 2 (Serratia marcescens, UniProt P52699); enzyme activity, inhibitor; Km 4.8 µM, together with: chromacef 25 µM): 0.08 ± 0.01 µM
